# Results from different studies.
# Every numbered part comes from another study and shows a few of its results, in no order.

# Sample 1
# Target: Histone acetyltransferase KAT6A, winged helix 2, GST fusion (KAT6A, Homo sapiens, UniProt Q92794, residues 85-181)
# Method: protein binding microarray
# Molecule type: double-stranded DNA, one strand shown
# Matrix: in vitro
# Concentration: not given
# Setting: 8-mer, flanks averaged, mean of 2 arrays, mostly near background
# Relative to: not given
# Reading: higher = stronger binding
# Residues (chain): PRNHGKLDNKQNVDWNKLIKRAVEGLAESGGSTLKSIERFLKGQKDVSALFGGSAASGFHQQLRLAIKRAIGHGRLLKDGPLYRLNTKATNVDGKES
Strand,E-score
CATCGCAA,0.00695
CATTAGCC,-0.121
GACTTTAA,-0.0612
CGATGCCG,0.0999
AAAGCCGT,0.126
GCCGATGA,0.0178
ATGAATGG,-0.182
CTATGGAC,-0.163
CACGCCGA,0.079
CAAGTAAC,-0.151
TCATAAGA,-0.0602
AGTAACGG,0.0195
AGAGGTAC,-0.133
TGATGAAA,-0.0272
ACTCTCAT,-0.171
AAAGGCAA,0.124
AATTAAGT,0.128
CGTATCTC,-0.136
GCAGAGGA,0.0204
CTTACACA,-0.092
CGCCCATA,0.105
TATTCGGA,0.139
AAACGTTT,-0.182
CTCCGAGA,0.0867
ACACGTCG,-0.122

# Sample 2
# Target: Interferon regulatory factor 7, full length, phosphomimetic (IRF7, Homo sapiens, UniProt Q92985, residues 1-503, S101K/S471D/S472D/S475D/S476D/S477D/S483D/S484D/S487D)
# Method: protein-binding microarray
# Molecule type: double-stranded DNA, one strand shown
# Matrix: in vitro
# Concentration: 250 nM
# Setting: 60-bp whole probe
# Added: salmon DNA 0.4 mg/ml
# Relative to: random background probes
# Reading: higher = stronger binding
# Constant ends, left off below: GCCTAGCAC … GTCTTGATTCGCTTGACGCTGCTG
# Residues (chain): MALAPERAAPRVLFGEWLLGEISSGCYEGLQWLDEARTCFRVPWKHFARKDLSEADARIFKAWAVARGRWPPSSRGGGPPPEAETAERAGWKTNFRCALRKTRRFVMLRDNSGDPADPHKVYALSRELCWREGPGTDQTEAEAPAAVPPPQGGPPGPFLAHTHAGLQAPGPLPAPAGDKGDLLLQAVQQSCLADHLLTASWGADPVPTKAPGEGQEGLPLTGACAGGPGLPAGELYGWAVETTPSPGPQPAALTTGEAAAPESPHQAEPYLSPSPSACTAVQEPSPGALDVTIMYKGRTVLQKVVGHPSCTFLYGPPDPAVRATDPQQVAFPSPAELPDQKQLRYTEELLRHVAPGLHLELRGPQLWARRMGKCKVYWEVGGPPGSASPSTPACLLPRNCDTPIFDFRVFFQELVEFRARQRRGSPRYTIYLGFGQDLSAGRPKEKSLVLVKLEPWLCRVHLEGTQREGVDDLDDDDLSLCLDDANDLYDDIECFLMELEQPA
Strand,log fluorescence [z-score]
GACGAACTGGAGTATCGAGACGTGCTA,-0.467
TTAGGTTTCGGGTTTCGGGTAGTGCTA,12
GACGATTTCAGTCTCGAGATGTGCTAG,1.17
TCGTTTCCCAAGTTTATACCTGTGCTA,5.71
TTATCAATCATTTTCGTTTTGTGCTAG,7.61
TTAGGTTTCGAATATCGGTTAGTGCTA,4.8
CTAGGACTGCTTCTCCTTTAGTGCTAG,0.547
GACGGTATCGACACTGGCGACGTGCTA,-0.403
GTCCCTATCTCCTCACAGACCGTGCTA,3.33
TCAAGTGTGTGTCTGATACTGTGCTAG,-0.629
GAAAGAATCACAACTAGGAAGGTGCTA,-0.235
TCAGCTTCCTAATTCTCACTGTGCTAG,0.721
GACGCACTGGGGTATCGGGACGTGCTA,-0.407
AGATGGTCCTCTCTCTATTCGTGCTAG,0.0555
TTAGGTTTCGGCTTCGGTTAGTGCTAG,7.07
GACGATTTCGGTATCGAGACGTGCTAG,1.71
GAAGGACTGGGGACTGGGGACGTGCTA,-0.816
AACGGTATCCTTCTCCTGACGTGCTAG,0.323
GACGAACTGAGTCGCGAGACGTGCTAG,-0.223

# Sample 3
# Target: Ras GTPase-activating protein-binding protein 1, RRM domain (G3BP1, Homo sapiens, UniProt Q13283)
# UniProt Q13283, sequence (whole entry, looked up): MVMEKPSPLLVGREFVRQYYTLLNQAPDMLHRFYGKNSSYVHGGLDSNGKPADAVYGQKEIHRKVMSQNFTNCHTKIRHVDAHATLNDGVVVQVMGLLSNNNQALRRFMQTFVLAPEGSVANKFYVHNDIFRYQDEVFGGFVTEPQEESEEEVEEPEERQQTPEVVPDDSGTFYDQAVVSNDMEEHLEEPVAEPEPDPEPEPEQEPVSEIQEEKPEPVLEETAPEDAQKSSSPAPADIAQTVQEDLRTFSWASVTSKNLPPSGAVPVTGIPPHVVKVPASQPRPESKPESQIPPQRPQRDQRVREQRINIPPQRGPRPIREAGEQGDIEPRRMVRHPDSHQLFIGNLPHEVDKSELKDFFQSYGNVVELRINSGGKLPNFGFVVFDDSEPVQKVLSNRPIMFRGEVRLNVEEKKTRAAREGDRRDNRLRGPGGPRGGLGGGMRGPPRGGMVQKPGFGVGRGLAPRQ
# Method: RNA Bind-n-Seq
# Molecule type: RNA
# Matrix: in vitro
# Concentration: 1 µM
# Setting: whole 134-nt RNA, ends assumed
# Added: 150 mM KCl
# Relative to: input library
# Reading: higher = stronger binding
# Constant ends, left off below: GGGAGUUCUACAGUCCGACGAUC … UGGAAUUCUCGGGUGUCAAGG
Strand,log2 enrichment
CACAGACAACACGCACCCACACAGACACAGAGGGAAGGGGUUGGGGUGGGGACAGGGUGCACAGCAGGGCGGGGUAGGACCCCAGCCCCU,0.217
CAAGUCCUGUGCUACACAUCGUAUGUACCGAAUCGGAAAGGUUUUUGGUUUUUGGAAAGUAUUAUGUUACGCCGUUCGGAUCUGCACUUC,-0.276
UGGGAGGUGGAUUUUGUUUAUUUUUUUAGCUCAUUUCCAGGGGUGGGAAUUUUUUUUUAAUAUGUUUCAUGAAUAAAGUUGUUUUUGAAA,1.06
UUGGCGCAUGCGCCUAAAGCUGACGGGUUUGAAAUGGCUUCGAUGUUAGCCGGGACCCGACUCAGGUGAAGGUCUGGUCCCCGUAGUUGG,-0.453
AGUCCUGUGCUACACAUCGUAUGUACCGAAUCGGGGUUUUGGGGUUUUGGGUUUUGGGAAAGUAUUAUGUUACGCCGUUCGGAUCUGCAC,0.102
AGUCCUGUGCUACACAUCGUAUGUACCGAAUCGGGCCCCCGGCCCCCGGCCCCCGGGGAAAGUAUUAUGUUACGCCGUUCGGAUCUGCAC,-0.696
UGCCUCCCUGCUGCAGAAAUACACCGACAACAGCGAGAAGCCAUCCGGGAAGAGACUGUGCAAAACCAAACACUUGAUCCCUCAGGAGUC,-0.101
CUGUGCUACACAUCGUAUGUACCGAAUCGGGGAAAAAAAGGGAAAAAAAGGGAAAAAAAGGGAAAGUAUUAUGUUACGCCGUUCGGAUCU,0.174
AGUCCUGUGCUACACAUCGUAUGUACCGAAUCGGGUUUUGGGUUUUGGGGUUUUGGGAAAGUAUUAUGUUACGCCGUUCGGAUCUGCACU,0.322

# Sample 4
# Target: RING finger protein unkempt homolog, zinc fingers 1-6, GST-SBP tag (UNK, Homo sapiens, UniProt Q9C0B0, residues 30-357)
# Method: RNA Bind-n-Seq
# Molecule type: RNA
# Matrix: in vitro
# Concentration: not given
# Setting: RNA with constant flanks, human and mouse sites, ends assumed
# Relative to: input RNA pool
# Reading: higher = stronger binding
# Constant ends, left off below: GGGAGUUCUACAGUCCGACGAUC … CAACAGAGGAUUGAGCAUCA
# Construct (chain): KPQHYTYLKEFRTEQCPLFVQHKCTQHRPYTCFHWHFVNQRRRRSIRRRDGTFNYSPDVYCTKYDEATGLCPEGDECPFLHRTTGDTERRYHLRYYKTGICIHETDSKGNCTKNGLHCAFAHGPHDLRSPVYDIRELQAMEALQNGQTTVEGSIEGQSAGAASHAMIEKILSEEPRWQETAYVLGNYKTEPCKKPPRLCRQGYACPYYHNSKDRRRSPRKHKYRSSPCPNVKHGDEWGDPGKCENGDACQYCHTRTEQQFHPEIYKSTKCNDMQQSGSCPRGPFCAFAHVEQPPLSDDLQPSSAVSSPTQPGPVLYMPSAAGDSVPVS
Strand,bound/input enrichment
AGCAAUGAAAAAGCAGCCCUUCUCCCAGCCCCCUUUUCACUAGGAGACACAAACAUUACAAUAGAAGAGCAAUUAAACUCAAUAAAUUUAUCUUUUCAGGAUGAUCCAGAUUCCAGUACC,8.7 ratio
CUGCGCUGUCCGCCCUGCGGGGGAGGAACCCGGAGCACGCAGCAGAGAUGUCAGCUUAUUUAUAGGAAUUGUCCAAAGCCACAGUCAUGGUGGAUGUAGGAAAGUGGCCAAUCUUCACUC,1.19 ratio
CCUUUUCUUUCCUUUUUUUUUUUUUUUUUAUACUCCCCCCCCCCACCCCUUCCCUUUUAAAUUUUGGUCGGUGGCGGCGGUGCUGGGCCGGAGGAAAGAAGGGACACGGAGUCCUCCCUC,1.32 ratio
AUUCUUGCAGCCUGCCGACCUUUGACCAUAACGGAAUUAUAUCACGCAGUAUGGACCAAAAACAUGUCGUUAACUUUGGAAGAUUUUCAACGCAAGUUAGAUAUCCUCUCCAAACUUCUU,0.0973 ratio
AACAAUAUCAAGGAAGUACUUCUGUUUCCUGCCAUGAAGCCAGAGGACAAGAAGGAAACUGCAGCGACCACUGAAACCCCAGAGAGCACAGAGGCCAGCCCCUCUGUCUAGAAGGCACAU,0.117 ratio
ACAGUUGUGCCACAAGUGCCCACCUCUCCUAAAUCCAGCCUUAGCGUCCAACCUGGAUUCCUAGCUGAUCUUAACAGGACAUUGCAGCGCAAGUCUAUCACGCGGCAUGGCUCCCUGUCC,0.159 ratio
ACCUGGUCCCAUCACCUACAGCAAGCCAACAUCCAGUUCCGUACAGAUAUUGCCAGGACGGAAUACCUUUCCAAUGCUGAUGAGCGUCUUCGCUGGCAGGCCAGCUCCUUGCCUGCUGAU,0.317 ratio
CCUCCACCUUCACCGUUGCCAUUUCCAACACAAGCUAUCCUUCCUCCAGCCCCAUCGAGCUACUUUUCUCAUCCAACAAUCAGAUAUCCUCCCCACCUGAAUCCUCAGGAUACUCUGAAG,0.586 ratio

# For quick reference, copied from above (sample 1):
Strand,E-score
CTATGGAC,-0.163
CACGCCGA,0.079
CAAGTAAC,-0.151
TCATAAGA,-0.0602
AGTAACGG,0.0195
AGAGGTAC,-0.133
